# Experimental data pooled from the literature.
# Every numbered part comes from another study and shows a few of its results, in no order. Several values in a cell are separate wells, animals, samples, runs or records.
# UniProt O08648, sequence (whole entry, looked up): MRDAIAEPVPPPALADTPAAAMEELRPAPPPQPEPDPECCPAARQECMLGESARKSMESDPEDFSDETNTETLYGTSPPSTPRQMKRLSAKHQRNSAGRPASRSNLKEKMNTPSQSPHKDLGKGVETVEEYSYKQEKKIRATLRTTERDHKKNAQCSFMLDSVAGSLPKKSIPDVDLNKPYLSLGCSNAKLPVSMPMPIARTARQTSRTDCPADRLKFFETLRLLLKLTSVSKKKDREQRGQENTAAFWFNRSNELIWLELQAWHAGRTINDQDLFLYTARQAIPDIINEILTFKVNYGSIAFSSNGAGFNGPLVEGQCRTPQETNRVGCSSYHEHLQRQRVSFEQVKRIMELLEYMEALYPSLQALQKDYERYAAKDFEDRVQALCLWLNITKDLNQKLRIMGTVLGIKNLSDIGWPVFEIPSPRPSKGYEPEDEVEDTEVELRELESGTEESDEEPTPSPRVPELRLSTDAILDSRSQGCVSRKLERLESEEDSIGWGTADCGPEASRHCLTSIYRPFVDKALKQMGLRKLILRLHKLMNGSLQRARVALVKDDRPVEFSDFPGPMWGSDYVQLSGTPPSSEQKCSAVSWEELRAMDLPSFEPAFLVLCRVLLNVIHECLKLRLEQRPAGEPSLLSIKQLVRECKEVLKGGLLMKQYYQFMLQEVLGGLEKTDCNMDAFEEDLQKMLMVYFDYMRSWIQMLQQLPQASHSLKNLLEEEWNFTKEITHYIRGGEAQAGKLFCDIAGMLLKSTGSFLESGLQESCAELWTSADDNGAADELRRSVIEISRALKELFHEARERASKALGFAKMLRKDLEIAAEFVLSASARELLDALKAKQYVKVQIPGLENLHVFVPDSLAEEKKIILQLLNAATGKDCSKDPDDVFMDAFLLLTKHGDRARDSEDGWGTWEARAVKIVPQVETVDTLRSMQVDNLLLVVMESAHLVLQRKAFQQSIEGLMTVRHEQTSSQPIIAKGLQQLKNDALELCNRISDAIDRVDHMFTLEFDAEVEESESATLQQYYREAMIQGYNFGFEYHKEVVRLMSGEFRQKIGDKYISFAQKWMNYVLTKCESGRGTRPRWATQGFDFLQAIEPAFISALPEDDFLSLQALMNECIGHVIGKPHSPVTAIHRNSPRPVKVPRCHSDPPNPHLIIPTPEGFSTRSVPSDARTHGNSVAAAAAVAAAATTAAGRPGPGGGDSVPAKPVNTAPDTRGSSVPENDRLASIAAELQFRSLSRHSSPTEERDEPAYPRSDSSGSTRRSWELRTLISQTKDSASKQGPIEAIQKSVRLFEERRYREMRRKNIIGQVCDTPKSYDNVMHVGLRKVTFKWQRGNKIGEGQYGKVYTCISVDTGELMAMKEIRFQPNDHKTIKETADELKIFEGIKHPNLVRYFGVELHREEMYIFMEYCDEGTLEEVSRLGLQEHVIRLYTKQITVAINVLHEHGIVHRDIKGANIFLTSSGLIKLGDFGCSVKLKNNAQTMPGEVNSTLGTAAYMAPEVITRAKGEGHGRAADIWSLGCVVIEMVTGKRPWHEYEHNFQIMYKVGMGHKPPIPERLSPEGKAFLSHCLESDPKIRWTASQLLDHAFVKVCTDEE
# UniProt O43318, sequence (whole entry, looked up): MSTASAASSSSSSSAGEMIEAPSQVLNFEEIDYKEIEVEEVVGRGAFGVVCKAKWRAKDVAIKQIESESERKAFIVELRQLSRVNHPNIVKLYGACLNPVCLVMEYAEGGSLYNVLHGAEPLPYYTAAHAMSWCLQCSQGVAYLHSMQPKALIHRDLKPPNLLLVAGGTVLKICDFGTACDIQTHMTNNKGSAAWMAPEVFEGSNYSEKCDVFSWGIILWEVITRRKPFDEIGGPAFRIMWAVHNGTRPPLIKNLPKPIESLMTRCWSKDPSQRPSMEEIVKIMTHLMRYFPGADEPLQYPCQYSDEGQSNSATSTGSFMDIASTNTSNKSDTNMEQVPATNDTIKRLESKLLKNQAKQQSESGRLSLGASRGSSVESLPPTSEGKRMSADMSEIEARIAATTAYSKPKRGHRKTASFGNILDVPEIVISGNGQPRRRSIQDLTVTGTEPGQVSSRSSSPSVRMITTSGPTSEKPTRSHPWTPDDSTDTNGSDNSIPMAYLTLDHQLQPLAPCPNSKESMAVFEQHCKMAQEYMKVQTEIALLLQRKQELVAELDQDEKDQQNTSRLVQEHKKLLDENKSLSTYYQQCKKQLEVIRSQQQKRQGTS
# UniProt Q6P2M8, sequence (whole entry, looked up): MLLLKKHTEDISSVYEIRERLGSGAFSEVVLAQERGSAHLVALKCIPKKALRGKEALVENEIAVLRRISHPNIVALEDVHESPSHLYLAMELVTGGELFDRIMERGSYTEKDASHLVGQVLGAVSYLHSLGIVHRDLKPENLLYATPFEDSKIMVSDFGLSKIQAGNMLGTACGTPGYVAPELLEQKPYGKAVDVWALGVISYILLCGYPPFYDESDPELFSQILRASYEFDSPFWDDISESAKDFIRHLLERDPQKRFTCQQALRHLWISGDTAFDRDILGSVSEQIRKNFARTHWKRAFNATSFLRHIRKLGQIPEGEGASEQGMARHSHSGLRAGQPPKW

# Series 1 — observed: enzyme activity; action: inhibitor; tested at: 77 µM; reference: untreated
# Target: DNA polymerase theta, ATPase domain (POLQ, Homo sapiens, UniProt O75417)
# UniProt O75417, sequence (whole entry, unmodified, looked up): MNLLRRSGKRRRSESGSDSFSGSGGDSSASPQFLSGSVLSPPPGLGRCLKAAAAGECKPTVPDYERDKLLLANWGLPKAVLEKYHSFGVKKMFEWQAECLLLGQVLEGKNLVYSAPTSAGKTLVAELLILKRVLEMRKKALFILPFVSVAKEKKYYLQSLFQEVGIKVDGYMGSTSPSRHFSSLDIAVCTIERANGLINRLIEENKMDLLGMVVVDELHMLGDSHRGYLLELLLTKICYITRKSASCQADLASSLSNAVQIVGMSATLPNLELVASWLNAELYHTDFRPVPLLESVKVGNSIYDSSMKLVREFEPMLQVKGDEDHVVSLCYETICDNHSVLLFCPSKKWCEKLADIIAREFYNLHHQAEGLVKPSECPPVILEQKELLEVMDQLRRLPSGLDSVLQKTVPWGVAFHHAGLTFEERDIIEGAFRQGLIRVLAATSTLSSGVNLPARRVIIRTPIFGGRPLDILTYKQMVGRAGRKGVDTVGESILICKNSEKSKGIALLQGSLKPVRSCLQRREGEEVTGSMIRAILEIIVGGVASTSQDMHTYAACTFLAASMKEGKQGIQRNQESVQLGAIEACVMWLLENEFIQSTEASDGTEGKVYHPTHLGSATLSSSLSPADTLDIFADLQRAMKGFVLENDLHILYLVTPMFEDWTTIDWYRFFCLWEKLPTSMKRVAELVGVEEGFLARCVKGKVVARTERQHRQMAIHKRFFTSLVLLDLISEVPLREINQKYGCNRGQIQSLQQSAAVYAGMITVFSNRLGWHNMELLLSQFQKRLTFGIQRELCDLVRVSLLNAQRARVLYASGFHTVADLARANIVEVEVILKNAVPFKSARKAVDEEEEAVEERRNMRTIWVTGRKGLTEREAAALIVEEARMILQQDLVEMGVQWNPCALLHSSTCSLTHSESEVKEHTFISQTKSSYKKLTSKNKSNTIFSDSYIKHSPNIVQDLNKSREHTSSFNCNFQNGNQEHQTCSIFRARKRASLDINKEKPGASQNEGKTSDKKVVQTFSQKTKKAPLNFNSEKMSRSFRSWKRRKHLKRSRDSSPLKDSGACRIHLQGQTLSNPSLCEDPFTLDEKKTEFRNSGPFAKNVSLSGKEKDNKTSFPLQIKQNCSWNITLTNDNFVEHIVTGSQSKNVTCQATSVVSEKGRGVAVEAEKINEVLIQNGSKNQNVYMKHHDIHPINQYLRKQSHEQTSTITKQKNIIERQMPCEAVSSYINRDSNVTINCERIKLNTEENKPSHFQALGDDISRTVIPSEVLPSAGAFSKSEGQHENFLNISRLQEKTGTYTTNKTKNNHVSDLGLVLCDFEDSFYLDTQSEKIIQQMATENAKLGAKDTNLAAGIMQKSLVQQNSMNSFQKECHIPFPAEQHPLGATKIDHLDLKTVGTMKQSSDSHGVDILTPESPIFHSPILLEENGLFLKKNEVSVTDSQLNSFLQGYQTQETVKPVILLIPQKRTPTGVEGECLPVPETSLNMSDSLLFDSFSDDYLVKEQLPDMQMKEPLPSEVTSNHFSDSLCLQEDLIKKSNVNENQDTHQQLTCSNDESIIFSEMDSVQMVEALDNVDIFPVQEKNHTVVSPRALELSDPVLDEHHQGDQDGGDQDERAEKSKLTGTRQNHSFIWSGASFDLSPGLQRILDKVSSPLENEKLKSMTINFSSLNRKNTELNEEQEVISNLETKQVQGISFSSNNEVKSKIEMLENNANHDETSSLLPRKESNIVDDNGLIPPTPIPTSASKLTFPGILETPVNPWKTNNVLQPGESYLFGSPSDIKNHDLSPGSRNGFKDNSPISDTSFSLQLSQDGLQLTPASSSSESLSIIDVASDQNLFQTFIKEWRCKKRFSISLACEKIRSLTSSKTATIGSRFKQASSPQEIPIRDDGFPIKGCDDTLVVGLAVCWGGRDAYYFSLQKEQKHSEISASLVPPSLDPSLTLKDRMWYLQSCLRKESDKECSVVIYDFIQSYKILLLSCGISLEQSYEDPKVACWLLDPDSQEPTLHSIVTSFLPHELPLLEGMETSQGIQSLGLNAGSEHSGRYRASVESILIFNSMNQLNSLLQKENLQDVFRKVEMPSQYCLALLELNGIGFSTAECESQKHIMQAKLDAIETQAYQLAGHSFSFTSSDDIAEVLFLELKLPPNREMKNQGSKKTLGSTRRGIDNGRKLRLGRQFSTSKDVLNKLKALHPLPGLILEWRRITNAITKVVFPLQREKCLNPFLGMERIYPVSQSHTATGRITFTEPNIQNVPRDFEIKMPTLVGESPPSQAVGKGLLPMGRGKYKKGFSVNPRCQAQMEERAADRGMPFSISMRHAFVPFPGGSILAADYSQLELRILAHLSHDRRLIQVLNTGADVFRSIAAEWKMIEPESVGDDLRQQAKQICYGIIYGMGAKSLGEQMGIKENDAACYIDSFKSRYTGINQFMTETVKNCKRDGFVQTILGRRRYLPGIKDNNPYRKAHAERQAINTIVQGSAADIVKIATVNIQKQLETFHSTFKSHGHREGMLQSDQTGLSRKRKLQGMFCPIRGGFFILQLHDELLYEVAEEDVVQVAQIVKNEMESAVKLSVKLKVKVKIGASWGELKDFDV
Structure (SMILES),remaining activity
Clc1ccc(CCC(Cn2ccnc2)Sc2c(Cl)cccc2Cl)cc1 (stereo not shown),78.4% and 98.1%
c1coc(CNc2ncnc3[nH]cnc23)c1,102%
CC1(C)O[C@H]2CC(=O)OC[C@]23[C@H]2CC[C@@]4(C)[C@H](c5ccoc5)OC(=O)[C@H]5O[C@]54[C@]2(C)C(=O)C[C@@H]13,86%
C[C@@H]1CCC[C@H](C)N1NC(=O)c1ccc(Cl)c(S(N)(=O)=O)c1,102%
C[N+]1(CCCCC[N+]2(C)CCCC2)CCCC1,98.7%
CCOC(=O)O[C@]1(C(=O)COC(=O)CC)CC[C@H]2[C@@H]3CCC4=CC(=O)C=C[C@]4(C)[C@H]3[C@@H](O)C[C@@]21C,98.2%
COCC(=O)O[C@]1(CCN(C)CCCc2nc3ccccc3[nH]2)CCc2cc(F)ccc2[C@@H]1C(C)C,104%
C[C@]12CC[C@@H]3c4ccc(O)cc4CC[C@H]3[C@@H]1CC[C@@H]2OC(=O)CCC1CCCC1,95.5%

# Series 2
# SMILES: COc1cc(C(=O)N2CCC(N3CCN(C)CC3)CC2)ccc1Nc1ncc2c(n1)N(C)c1ccccc1C(=O)N2C
target,assay,system,setting,inhibition [%]
"MAP/microtubule affinity-regulating kinase 3 (Mark3, Mus musculus, UniProt Q03141)",KiNativ profiling,mouse brain lysate,"0.1 µM, LYS1 site, together with: ADP acyl phosphate probe",-2.4
"Mitogen-activated protein kinase kinase kinase 4 (Map3k4, Mus musculus, UniProt O08648)",KiNativ profiling,mouse brain lysate,"1 µM, LYS1 site, together with: ADP acyl phosphate probe",-3.8
mouse CaMK1δ,"probe labelling, KiNativ ADP probe",mouse brain lysate,"1 µM, LYS1 site LFAVkCIPK",-0.6
CaMKK2 (mouse),"probe labelling, KiNativ, measured: Lys1 site peptide",brain tissue lysate (mouse),"1 µM, together with: ADP acyl-phosphate probe",23.2
ULK3 human,KiNativ profiling,human PBMC,"1 µM, LYS2 site, together with: ATP acyl phosphate probe",9.2
NEK4 (mouse),"probe labelling, KiNativ, measured: DLkTQNVFLTR peptide, LYS2 site",brain tissue lysate (mouse),"0.1 µM, together with: ATP acyl-phosphate probe",-4.3
PAK2 (human),"probe labelling, KiNativ ADP probe",human PBMC lysate,"concentration not given, LYS1 labelled site",7.7

# Series 3 — technique: competition with immobilised ligand; tested at: 1 µM
# Structure (SMILES): CC(=O)Nc1c(C(C)=O)c(=O)n(C)c2nc(-c3ccc(Cl)cc3Cl)c(-c3ccc(Cl)cc3)cc12
target,observed,remaining binding
"Mitogen-activated protein kinase kinase kinase kinase 3 (MAP4K3, Homo sapiens, UniProt Q8IVH8)",cell-free assay,100%
"Serine/threonine-protein kinase PLK3 (PLK3, Homo sapiens, UniProt Q9H4B4)",cell-free assay,100%
"Beta-adrenergic receptor kinase 1 (GRK2, Homo sapiens, UniProt P25098)",cell-free assay,84%
"Receptor-type tyrosine-protein kinase FLT3 (FLT3, Homo sapiens, UniProt P36888, R834Q)",cell-free assay,100%
"Phosphatidylinositol 4,5-bisphosphate 3-kinase catalytic subunit beta isoform (PIK3CB, Homo sapiens, UniProt P42338)",cell-free assay,100%
"Receptor-interacting serine/threonine-protein kinase 2 (RIPK2, Homo sapiens, UniProt O43353)",cell-free assay,100%
"Serine/threonine-protein kinase MRCK alpha (CDC42BPA, Homo sapiens, UniProt Q5VT25)",cell-free assay,100%
"Membrane-associated tyrosine- and threonine-specific cdc2-inhibitory kinase (PKMYT1, Homo sapiens, UniProt Q99640)",cell-free assay,100%
"Mitogen-activated protein kinase 3 (MAPK3, Homo sapiens, UniProt P27361)",cell-free assay,100%
"Ephrin type-A receptor 2 (EPHA2, Homo sapiens, UniProt P29317)",cell-free assay,100%
"Phosphatidylinositol 4,5-bisphosphate 3-kinase catalytic subunit alpha isoform (PIK3CA, Homo sapiens, UniProt P42336, H1047L)",cell-free assay,95%
"Bone morphogenetic protein receptor type-1A (BMPR1A, Homo sapiens, UniProt P36894)",binding,85%
"Tyrosine-protein kinase Mer (MERTK, Homo sapiens, UniProt Q12866)",cell-free assay,100%
"Mitogen-activated protein kinase kinase kinase 5 (MAP3K5, Homo sapiens, UniProt Q99683)",cell-free assay,100%
"Calcium/calmodulin-dependent protein kinase type 1B (PNCK, Homo sapiens, UniProt Q6P2M8)",cell-free assay,100%
"Phosphatidylinositol 4-kinase beta (PI4KB, Homo sapiens, UniProt Q9UBF8)",cell-free assay,100%
"Protein-tyrosine kinase 2-beta (PTK2B, Homo sapiens, UniProt Q14289)",cell-free assay,100%
"Glycogen synthase kinase-3 alpha (GSK3A, Homo sapiens, UniProt P49840)",cell-free assay,100%
"Ephrin type-B receptor 6 (EPHB6, Homo sapiens, UniProt O15197)",cell-free assay,100%
"Mitogen-activated protein kinase kinase kinase 7 (MAP3K7, Homo sapiens, UniProt O43318)",cell-free assay,100%
"Tyrosine-protein kinase receptor TYRO3 (TYRO3, Homo sapiens, UniProt Q06418)",cell-free assay,68%
"Casein kinase I isoform gamma-2 (CSNK1G2, Homo sapiens, UniProt P78368)",cell-free assay,100%
"Mitotic checkpoint serine/threonine-protein kinase BUB1 (BUB1, Homo sapiens, UniProt O43683)",cell-free assay,92%
"Tyrosine-protein kinase JAK1, JH2 (JAK1, Homo sapiens, UniProt P23458)",cell-free assay,100%
"Casein kinase I isoform gamma-1 (CSNK1G1, Homo sapiens, UniProt Q9HCP0)",cell-free assay,100%

# Series 4 — host: mouse; matrix: microsomes or S9; tested at: 2 µM; time: 0.5 h
Structure (SMILES),remaining compound [%]
O=C(Nc1ccc2nncn2c1)c1cc(Cl)c2c(c1)OCO2,10.3
CC(C)(NC(=O)C1CCC(NC(=O)C2CCCC2)CC1)c1noc(C(N)=O)n1 (stereo not shown),84.1
COc1ccc(C(=O)C2=CN(c3ccc(N(C)C)cc3)c3ccccc3S2(=O)=O)cc1OC,15
Cc1cc(C)n(NC(=O)c2nn(C)cc2Br)c(=O)c1,94.7
CC1CCc2cc(F)ccc2N1S(=O)(=O)c1cc(Cl)ccc1Cl (stereo not shown),99.1
CC(C)n1c(=O)c2cn(S(=O)(=O)c3ccc(C4CCCCC4)cc3)nc2n(C(C)C)c1=O,> 100
CC1CCN([S+]([O-])C23CC4CC(CC(C4)C2)C3)CC1 (stereo not shown),0.173

# Series 5 — action: inhibitor; tested at: 5 µM
# Structure (SMILES): COc1cc(C(=O)N2CCC(N3CCN(C)CC3)CC2)ccc1Nc1ncc2c(n1)N(C)c1ccccc1C(=O)N2C
target,assay,system,setting,scale,log2 fold change
"Serine/threonine-protein kinase Sgk1, with CDC37 (SGK1, Homo sapiens, UniProt O00141)",kinase activity,,cell-based kinome screen,reference: vehicle,-0.061
"TGF-beta receptor type-1 (TGFBR1, Homo sapiens, UniProt P36897, D400G)",kinase activity,,cell-based kinome screen,reference: vehicle,0.037
"LIM domain kinase 1 (LIMK1, Homo sapiens, UniProt P53667)",cell-based kinome screen,human cells,,reference: untreated control,0.01 log2
"Dual specificity tyrosine-phosphorylation-regulated kinase 2 (DYRK2, Homo sapiens, UniProt Q92630)",,human cells,,reference: vehicle,0.042
kinase–CDC37 interaction,kinase–CDC37 binding,human cells,oncogenic MSN-ALK fusion,reference: vehicle,-0.35
"Aurora kinase C (AURKC, Homo sapiens, UniProt Q9UQB9)",cell-based kinome profiling,human cells,,reference: vehicle control,0.051
"Serine/threonine-protein kinase DCLK2 (DCLK2, Homo sapiens, UniProt Q8N568)",,human cells,,reference: vehicle,0.154
"Serine/threonine-protein kinase B-raf (BRAF, Homo sapiens, UniProt P15056, G469E)",cell-based kinome profiling,human cells,,reference: vehicle control,-0.056

# Some of these lines once more (series 2):
target,assay,system,setting,inhibition [%]
mouse CaMK1δ,"probe labelling, KiNativ ADP probe",mouse brain lysate,"1 µM, LYS1 site LFAVkCIPK",-0.6
NEK4 (mouse),"probe labelling, KiNativ, measured: DLkTQNVFLTR peptide, LYS2 site",brain tissue lysate (mouse),"0.1 µM, together with: ATP acyl-phosphate probe",-4.3
CaMKK2 (mouse),"probe labelling, KiNativ, measured: Lys1 site peptide",brain tissue lysate (mouse),"1 µM, together with: ADP acyl-phosphate probe",23.2
"Mitogen-activated protein kinase kinase kinase 4 (Map3k4, Mus musculus, UniProt O08648)",KiNativ profiling,mouse brain lysate,"1 µM, LYS1 site, together with: ADP acyl phosphate probe",-3.8
"MAP/microtubule affinity-regulating kinase 3 (Mark3, Mus musculus, UniProt Q03141)",KiNativ profiling,mouse brain lysate,"0.1 µM, LYS1 site, together with: ADP acyl phosphate probe",-2.4
ULK3 human,KiNativ profiling,human PBMC,"1 µM, LYS2 site, together with: ATP acyl phosphate probe",9.2
PAK2 (human),"probe labelling, KiNativ ADP probe",human PBMC lysate,"concentration not given, LYS1 labelled site",7.7
